# Measurements of several laboratories.
# Numbered parts are unrelated; each lists some results of a single study.

# Study 1 — technique: protein-binding microarray; form: double-stranded DNA, one strand shown; matrix: in vitro; concentration: 250 nM; notes: 60-bp whole probe; with: salmon DNA 0.4 mg/ml; relative to: random background probes; direction: higher = stronger binding; constant ends, left off below: GCCTAGCAC … GTCTTGATTCGCTTGACGCTGCTG
# Target: Interferon regulatory factor 5, full length, phosphomimetic (IRF5, Homo sapiens, UniProt Q13568-2, residues 1-514, K96S/S451D/S453D/S456D/S462D)
Oligonucleotide,log fluorescence [z-score]
GACGAACTGGGGTTTGGAGACGTGCTA,-0.425
GACGATATCCGGTATCGAGACGTGCTA,1.61
TTAGGTTTCGGTTTCGGTTAGTGCTAG,11.5
TTCGATATCGGGTATCGATTAGTGCTA,6.44
TTAGGACTGGGACTGGGTAAGTGCTAG,-0.802
GACGGTTTCGGTCTCGGGATGTGCTAG,9.67
TTAGGTACCGGGTTTCGGTTAGTGCTA,7.44
GACGGGCTGGACTTTCGGGACGTGCTA,3.53

# Study 2 — technique: DNA-protein interaction ELISA; form: double-stranded DNA, one strand shown; matrix: in vitro, bacterial lysate; concentration: not given; notes: whole dsDNA probe, crude lysate protein; relative to: highest signal in screen; direction: higher = stronger binding
# Target: Probable WRKY transcription factor 33, N-terminal DNA-binding domain (WRKY33, Arabidopsis thaliana, UniProt Q8S8P5, residues 169-264)
# Target sequence (chain): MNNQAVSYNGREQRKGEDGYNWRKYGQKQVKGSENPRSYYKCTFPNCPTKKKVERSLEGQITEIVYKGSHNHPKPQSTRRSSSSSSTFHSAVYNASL
Oligonucleotide,relative absorbance
AAAAAATTAGTCCTGATTCAATCTTCAAAA,33.6 % of maximum
AAAAAATTTCTCCTTCTTTGTTCTTCAAAA,28.6 % of maximum
AAAAAAGCGCGCCCGCACTGTTAATAAAAA,27.7 % of maximum
AAAAAATGCAGACCTTCAGCTGGGTAAAAA,24.6 % of maximum
AAAAAATTTGTACTTTAAGTTTACATAAAA,16.8 % of maximum
AAAAAATTACTCCTAGCCCTCATTCAAAAA,21.4 % of maximum
AAAAAAAGTTACCAGTACGCGTCGGGAAAA,22 % of maximum
AAAAAAGTCATTATAACCCAAACTCTAAAA,33.7 % of maximum

# Further values, each from its own experiment
Substance,target or system,test,system,conditions,measurement,result
"H1-2 (Homo sapiens, UniProt P16403)","OTX2 (Homo sapiens, UniProt P32243)",cross-linking MS,cells,with: BSPNO,cross-linked residues,K130 to K113
COc1ccccc1-c1n[nH]cc1CN1CCCN(S(=O)(=O)c2cn(C)cn2)C(c2ccccc2)CC(=O)NCC1 (stereo not drawn),,,"mouse, microsomes or S9","2 µM, 0.5 h",remaining compound,40%

# For quick reference, copied from above (study 2):
Oligonucleotide,relative absorbance
AAAAAATTAGTCCTGATTCAATCTTCAAAA,33.6 % of maximum
